Measurements pooled from the literature.
Each line is one published result; not all experiments were run side by side. ± gives the spread as reported.
FFAR3: Free fatty acid receptor 3 (FFAR3, Homo sapiens, UniProt O14843)
Sequence of UniProt O14843 (whole entry, looked up): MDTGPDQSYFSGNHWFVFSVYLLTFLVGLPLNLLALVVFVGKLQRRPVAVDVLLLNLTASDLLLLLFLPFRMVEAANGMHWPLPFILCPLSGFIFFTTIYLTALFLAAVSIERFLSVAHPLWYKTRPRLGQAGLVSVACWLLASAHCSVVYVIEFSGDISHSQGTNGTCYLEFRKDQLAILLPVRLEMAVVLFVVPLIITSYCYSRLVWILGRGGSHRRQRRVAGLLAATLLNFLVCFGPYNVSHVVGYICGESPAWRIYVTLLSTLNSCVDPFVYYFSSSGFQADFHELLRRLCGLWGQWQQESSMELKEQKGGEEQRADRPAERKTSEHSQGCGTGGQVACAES
NR1H2 ligand-binding domain: Oxysterols receptor LXR-beta, ligand-binding domain (NR1H2, Homo sapiens, UniProt P55055)
Sequence of UniProt P55055 (whole entry, looked up): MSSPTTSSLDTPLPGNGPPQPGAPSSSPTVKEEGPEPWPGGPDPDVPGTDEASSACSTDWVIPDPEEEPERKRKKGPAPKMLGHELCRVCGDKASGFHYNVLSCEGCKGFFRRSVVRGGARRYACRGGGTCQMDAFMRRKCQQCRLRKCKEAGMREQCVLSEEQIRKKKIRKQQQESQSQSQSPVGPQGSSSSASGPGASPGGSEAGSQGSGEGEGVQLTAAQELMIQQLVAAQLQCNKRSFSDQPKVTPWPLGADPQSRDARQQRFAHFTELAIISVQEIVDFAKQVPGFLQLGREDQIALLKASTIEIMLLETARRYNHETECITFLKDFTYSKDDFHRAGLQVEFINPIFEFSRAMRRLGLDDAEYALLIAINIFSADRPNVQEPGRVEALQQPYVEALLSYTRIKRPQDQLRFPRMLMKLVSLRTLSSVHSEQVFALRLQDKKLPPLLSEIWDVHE
Thyrotropin-releasing hormone receptor: Thyrotropin-releasing hormone receptor (Mus musculus, UniProt P21761)
Sequence of UniProt P21761 (whole entry, looked up): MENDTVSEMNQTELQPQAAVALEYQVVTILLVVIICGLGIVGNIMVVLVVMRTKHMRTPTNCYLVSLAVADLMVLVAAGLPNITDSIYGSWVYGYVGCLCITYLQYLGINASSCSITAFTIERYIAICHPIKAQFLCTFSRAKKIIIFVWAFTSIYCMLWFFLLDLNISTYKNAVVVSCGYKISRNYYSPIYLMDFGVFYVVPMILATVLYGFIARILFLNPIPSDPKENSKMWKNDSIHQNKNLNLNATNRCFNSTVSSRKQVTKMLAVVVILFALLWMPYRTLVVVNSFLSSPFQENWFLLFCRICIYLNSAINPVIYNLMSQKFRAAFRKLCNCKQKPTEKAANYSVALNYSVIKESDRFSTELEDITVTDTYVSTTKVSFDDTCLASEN
Sequence of UniProt P41149 (whole entry, looked up): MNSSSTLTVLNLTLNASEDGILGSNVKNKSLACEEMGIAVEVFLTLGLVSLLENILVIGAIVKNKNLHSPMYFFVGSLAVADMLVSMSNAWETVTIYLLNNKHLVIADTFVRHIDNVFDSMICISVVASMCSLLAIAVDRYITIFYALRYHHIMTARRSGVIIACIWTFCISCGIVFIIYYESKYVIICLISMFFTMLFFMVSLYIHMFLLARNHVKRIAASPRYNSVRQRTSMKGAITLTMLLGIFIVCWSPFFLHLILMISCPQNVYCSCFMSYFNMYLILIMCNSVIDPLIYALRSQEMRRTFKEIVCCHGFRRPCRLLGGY
Sequence of UniProt P54764 (whole entry, looked up): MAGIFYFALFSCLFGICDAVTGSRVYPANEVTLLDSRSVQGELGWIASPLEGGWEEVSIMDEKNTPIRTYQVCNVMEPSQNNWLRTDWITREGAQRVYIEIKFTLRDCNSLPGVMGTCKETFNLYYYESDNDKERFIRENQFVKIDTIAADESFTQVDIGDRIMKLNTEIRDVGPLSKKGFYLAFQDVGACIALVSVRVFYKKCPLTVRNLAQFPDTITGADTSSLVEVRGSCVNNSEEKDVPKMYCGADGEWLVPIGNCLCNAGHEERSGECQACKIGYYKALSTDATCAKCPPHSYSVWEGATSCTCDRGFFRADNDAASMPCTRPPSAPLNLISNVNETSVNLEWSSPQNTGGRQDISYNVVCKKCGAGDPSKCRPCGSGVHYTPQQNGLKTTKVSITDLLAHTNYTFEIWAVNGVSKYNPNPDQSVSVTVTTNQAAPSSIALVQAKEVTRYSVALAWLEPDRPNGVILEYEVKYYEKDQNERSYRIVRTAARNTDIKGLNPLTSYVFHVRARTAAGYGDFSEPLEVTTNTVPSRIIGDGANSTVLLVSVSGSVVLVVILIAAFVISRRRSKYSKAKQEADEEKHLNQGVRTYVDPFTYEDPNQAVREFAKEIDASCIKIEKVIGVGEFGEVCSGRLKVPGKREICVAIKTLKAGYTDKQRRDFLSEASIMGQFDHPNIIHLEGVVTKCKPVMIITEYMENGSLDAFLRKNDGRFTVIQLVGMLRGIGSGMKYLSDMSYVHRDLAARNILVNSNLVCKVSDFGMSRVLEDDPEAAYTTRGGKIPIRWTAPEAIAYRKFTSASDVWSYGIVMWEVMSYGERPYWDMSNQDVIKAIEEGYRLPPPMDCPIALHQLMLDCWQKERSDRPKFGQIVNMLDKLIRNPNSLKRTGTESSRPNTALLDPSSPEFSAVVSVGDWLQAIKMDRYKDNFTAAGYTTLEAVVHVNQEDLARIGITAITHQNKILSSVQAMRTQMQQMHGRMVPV
Sequence of UniProt P51812 (whole entry, looked up): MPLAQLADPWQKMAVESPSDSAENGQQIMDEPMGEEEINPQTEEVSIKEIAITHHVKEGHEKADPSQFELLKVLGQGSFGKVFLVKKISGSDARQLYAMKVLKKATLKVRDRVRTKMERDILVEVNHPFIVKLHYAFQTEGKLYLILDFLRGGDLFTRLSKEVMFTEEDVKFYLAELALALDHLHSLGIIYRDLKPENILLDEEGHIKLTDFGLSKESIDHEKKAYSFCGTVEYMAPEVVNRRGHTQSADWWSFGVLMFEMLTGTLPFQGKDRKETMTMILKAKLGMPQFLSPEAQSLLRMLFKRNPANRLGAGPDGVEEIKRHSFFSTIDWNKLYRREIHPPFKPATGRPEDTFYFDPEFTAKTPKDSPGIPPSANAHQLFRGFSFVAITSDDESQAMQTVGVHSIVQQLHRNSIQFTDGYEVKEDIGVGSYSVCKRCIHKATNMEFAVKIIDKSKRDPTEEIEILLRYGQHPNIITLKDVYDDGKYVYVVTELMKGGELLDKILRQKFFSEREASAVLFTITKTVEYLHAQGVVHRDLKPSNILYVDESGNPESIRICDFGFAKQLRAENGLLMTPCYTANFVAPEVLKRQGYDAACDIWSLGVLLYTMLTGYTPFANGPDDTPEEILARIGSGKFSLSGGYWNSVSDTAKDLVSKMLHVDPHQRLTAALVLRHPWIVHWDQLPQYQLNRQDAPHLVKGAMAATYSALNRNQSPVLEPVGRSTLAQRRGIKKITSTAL
Sequence of UniProt Q9WTJ5 (whole entry, looked up): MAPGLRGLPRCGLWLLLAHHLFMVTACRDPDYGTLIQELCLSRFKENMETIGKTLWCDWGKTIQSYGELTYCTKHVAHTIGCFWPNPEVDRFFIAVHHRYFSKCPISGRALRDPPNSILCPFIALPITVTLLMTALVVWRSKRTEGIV
Sequence of UniProt Q60755 (whole entry, looked up): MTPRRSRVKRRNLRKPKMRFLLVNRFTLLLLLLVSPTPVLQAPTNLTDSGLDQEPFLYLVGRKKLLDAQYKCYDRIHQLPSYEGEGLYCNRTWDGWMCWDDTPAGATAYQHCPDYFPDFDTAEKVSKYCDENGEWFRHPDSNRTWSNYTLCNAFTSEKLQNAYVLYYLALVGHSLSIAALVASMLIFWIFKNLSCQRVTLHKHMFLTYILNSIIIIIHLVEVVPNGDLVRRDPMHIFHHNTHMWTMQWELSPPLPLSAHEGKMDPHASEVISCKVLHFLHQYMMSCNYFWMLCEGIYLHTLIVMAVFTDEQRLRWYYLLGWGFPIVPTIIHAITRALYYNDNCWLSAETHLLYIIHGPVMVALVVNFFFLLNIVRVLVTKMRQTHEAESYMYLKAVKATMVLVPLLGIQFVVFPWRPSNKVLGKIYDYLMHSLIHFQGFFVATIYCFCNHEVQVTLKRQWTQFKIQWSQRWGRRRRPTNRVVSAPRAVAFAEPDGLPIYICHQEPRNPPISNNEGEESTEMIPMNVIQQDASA
Sequence of UniProt P30969 (whole entry, looked up): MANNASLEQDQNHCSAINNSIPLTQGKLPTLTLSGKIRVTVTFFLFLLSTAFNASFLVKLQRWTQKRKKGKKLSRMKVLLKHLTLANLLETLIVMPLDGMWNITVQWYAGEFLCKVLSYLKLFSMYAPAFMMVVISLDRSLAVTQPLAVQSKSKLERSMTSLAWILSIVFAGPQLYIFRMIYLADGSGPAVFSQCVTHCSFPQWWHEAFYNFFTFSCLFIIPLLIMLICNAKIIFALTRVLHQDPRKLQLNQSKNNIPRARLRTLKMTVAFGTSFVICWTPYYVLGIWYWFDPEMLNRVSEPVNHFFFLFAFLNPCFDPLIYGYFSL
Sequence of UniProt Q6W5P4 (whole entry, unmodified, looked up): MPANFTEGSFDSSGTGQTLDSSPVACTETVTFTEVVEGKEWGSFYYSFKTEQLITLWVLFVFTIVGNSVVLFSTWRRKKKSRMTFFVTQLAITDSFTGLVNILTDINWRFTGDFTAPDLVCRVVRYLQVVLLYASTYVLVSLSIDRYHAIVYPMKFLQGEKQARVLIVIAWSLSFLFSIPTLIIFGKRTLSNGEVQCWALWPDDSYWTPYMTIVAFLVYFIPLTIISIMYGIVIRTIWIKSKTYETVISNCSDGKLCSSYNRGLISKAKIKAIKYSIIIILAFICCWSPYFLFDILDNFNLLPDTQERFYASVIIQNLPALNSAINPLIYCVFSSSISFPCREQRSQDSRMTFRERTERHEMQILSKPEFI

With `C#CCC(=O)O` the EC50 was greater than 10000 µM (FFAR3; agonist).
`N=C(N)NCCC[C@H](NC(=O)[C@H](Cc1ccccc1)NC(=O)[C@@H](N)CO)C(=O)N[C@@H](CC(N)=O)C(N)=O` gave an EC50 of 0.129 µM (Neuropeptide S receptor (NPSR1, Homo sapiens, UniProt Q6W5P4, N107I); cAMP, agonist, TR-FRET).
For `CN(C(=O)c1cccc2ccccc12)c1ccc(C(O)(C(F)(F)F)C(F)(F)F)cc1`, the EC50 was 2.23 ± 0.02 µM (NR1H2 ligand-binding domain; agonist; concentration not given).
The EC50 of `CC#CCC(=O)O` is reported as 145 µM (FFAR3; cAMP, agonist, TR-FRET).
For `O=C(O)/C=C/c1cccc(NC(=O)c2cc(-c3ccccc3)ccc2F)c1`, the EC50 was greater than 10 µM (Prostacyclin receptor (PTGIR, Homo sapiens, UniProt P43119); calcium signal, agonist, fluorescence).
With `CC[C@H](C)[C@H](NC(=O)[C@@H]1CCCN1C(=O)CNC(=O)[C@H](Cc1ccccc1)NC(=O)[C@H](CC(N)=O)NC(=O)[C@H](CC(N)=O)NC(=O)[C@H](CO)NC(=O)[C@H](CO)NC(=O)[C@H](Cc1c[nH]cn1)NC(=O)[C@@H](NC(=O)[C@H](CC(C)C)NC(=O)[C@H](Cc1ccccc1)NC(=O)[C@H](CC(N)=O)NC(=O)[C@H](C)NC(=O)[C@H](CC(C)C)NC(=O)[C@H](CCCNC(=N)N)NC(=O)[C@H](CCC(N)=O)NC(=O)[C@@H](NC(=O)[C@H](C)NC(=O)[C@@H]1CSSC[C@H](NC(=O)[C@@H](N)CCCCN)C(=O)N[C@@H](CC(N)=O)C(=O)N[C@@H]([C@@H](C)O)C(=O)N[C@@H](C)C(=O)N[C@@H]([C@@H](C)O)C(=O)N1)[C@@H](C)O)C(C)C)C(=O)N[C@@H](CC(C)C)C(=O)N1CCC[C@H]1C(=O)N1CCC[C@H]1C(=O)N[C@H](C(=O)N[C@@H](CC(N)=O)C(=O)N[C@H](C(=O)NCC(=O)N[C@@H](CO)C(=O)N[C@@H](CC(N)=O)C(=O)N[C@H](C(=O)N[C@@H](Cc1ccc(O)cc1)C(N)=O)[C@@H](C)O)C(C)C)[C@@H](C)O` the EC50 was 0.000562 µM (Calcr/Ramp1 (Mus musculus, UniProt Q60755+Q9WTJ5); cAMP production, agonist; COS-7, transfected; 15 min, 37 °C, together with: IBMX 1 mM).
`COc1cc(-c2cnc3nc2NCCCNS(=O)(=O)c2cccc(c2)N3)ccc1F` gave an EC50 of 0.45 µM (Ephrin type-A receptor 4 (EPHA4, Homo sapiens, UniProt P54764); target engagement in cells, BRET).
With `CCOc1ccccc1-c1nnc2n1N=C(c1ccc(NC3CCCC3)cc1)CS2` the EC50 was 1.4 µM (C-X-C chemokine receptor type 4 (CXCR4, Homo sapiens, UniProt P61073); β-arrestin recruitment, agonist).
`CC(C)COC1O[C@@H]2O[C@@]3(C)CC[C@H]4[C@H](C)CCC([C@H]1C)[C@@]24OO3` (some centres unmarked) has an EC50 of 61.8 ± 9.62 µM (ATP-dependent translocase ABCB1 (ABCB1, Homo sapiens, UniProt P08183); transport inhibition, inhibitor, flow cytometry; CEM/ADR5000 leukaemia; together with: calcein-AM 1 µM).
The EC50 of `O=C(O)CC1CC1` is reported as 209 µM (FFAR3; agonist).
`CN(C(=O)c1c(F)cccc1Cl)c1ccc(C(O)(C(F)(F)F)C(F)(F)F)cc1` has an EC50 of 0.4 ± 0.01 µM (NR1H2 ligand-binding domain; agonist; concentration not given).
The EC50 of `C[C@H](NC(=O)[C@H](CC(N)=O)NC(=O)[C@H](Cc1c[nH]c2ccccc12)NC(=O)[C@H](CCCNC(=N)N)NC(=O)[C@@H](Cc1ccccc1)NC(=O)[C@H](Cc1c[nH]cn1)NC(=O)[C@H](CN=[N+]=[N-])NC(=O)[C@@H](N)Cc1ccc(O)cc1)C(=O)N[C@@H](Cc1ccccc1)C(=O)N[C@@H](CN=[N+]=[N-])C(=O)N[C@@H](Cc1ccc(O)cc1)C(N)=O` is reported as 0.02 ± 0.002 µM (Melanocortin receptor 5 (Mus musculus, UniProt P41149); agonist).
`NC(=O)CNC(=O)[C@@H]1CCCN1C(=O)[C@H](Cc1ccc(O)cc1)NC(=O)[C@H](Cc1c[nH]c2ccccc12)NC(=O)[C@@H](Cc1c[nH]c2ccccc12)NC(=O)[C@H](Cc1c[nH]cn1)NC(=O)[C@H](CO)NC(=O)[C@H](Cc1c[nH]c2ccccc12)NC(=O)[C@H](Cc1c[nH]cn1)NC(=O)[C@@H]1CCC(=O)N1` gave an EC50 of 0.0039 ± 0.0005 µM (Gonadotropin-releasing hormone receptor (Rattus norvegicus, UniProt P30969); inositol phosphate accumulation, agonist; WPE-1-NB26-3 expressing Gonadotropin-releasing hormone receptor; 60 min, 37 °C, together with: 10 mM LiCl).
`CC(C)n1cnc(C[C@H](NC(=O)C2CCCCN2)C(=O)N2CCC[C@H]2C(N)=O)c1` (some centres unmarked) has an EC50 of 0.75 µM (Thyrotropin-releasing hormone receptor; calcium signal, agonist, fluorescence).
`N#C/C(=C\c1cccc(-c2ccncc2)c1)C(N)=O` has an EC50 of roughly 20 µM (Ribosomal protein S6 kinase alpha-3 (RPS6KA3, Homo sapiens, UniProt P51812); inhibitor, Western blot; transfected COS-7; together with: PMA).
The EC50 of `CCn1cnc(C[C@H](NC(=O)c2cnccn2)C(=O)N2CCC[C@H]2C(N)=O)c1` is reported as 10.5 µM (Thyrotropin-releasing hormone receptor; calcium signal, agonist, fluorescence).
`CSCC[C@H](NC(=O)[C@H](CC(C)C)NC(=O)[C@H](Cc1cnc[nH]1)NC(=O)CNC(=O)[C@@H](NC(=O)[C@H](C)NC(=O)[C@H](Cc1c[nH]c2ccccc12)NC(=O)[C@H](CCC(N)=O)NC(=O)[C@H](CC(N)=O)NC(=O)CNC(=O)[C@H](CC(C)C)NC(=O)[C@H](CCCN=C(N)N)NC(=O)[C@H](CCC(N)=O)NC(=O)[C@@H]1CCC(=O)N1)C(C)C)C(N)=O` has an EC50 of 0.0514 ± 0.0073 µM (Receptor tyrosine-protein kinase erbB-3 (ERBB3, Homo sapiens, UniProt P21860); receptor phosphorylation, inhibitor, Western blot; H2087; 3 min).

Some of these lines once more:
`N=C(N)NCCC[C@H](NC(=O)[C@H](Cc1ccccc1)NC(=O)[C@@H](N)CO)C(=O)N[C@@H](CC(N)=O)C(N)=O` gave an EC50 of 0.129 µM (Neuropeptide S receptor (NPSR1, Homo sapiens, UniProt Q6W5P4, N107I); cAMP, agonist, TR-FRET).
For `CN(C(=O)c1cccc2ccccc12)c1ccc(C(O)(C(F)(F)F)C(F)(F)F)cc1`, the EC50 was 2.23 ± 0.02 µM (NR1H2 ligand-binding domain; agonist; concentration not given).
The EC50 of `CC#CCC(=O)O` is reported as 145 µM (FFAR3; cAMP, agonist, TR-FRET).
